# Assay results of several laboratories.
# Compare with care: the assays were run in different laboratories. Numbers after ± are the reported error.
Substance,test,test system,setting,scale,measurement,value
COC(=O)C(c1ccccc1Cl)N1CCC(SCC(=O)c2cccc(OC)c2)C(=CC(=O)O)C1 (mixture of isomers),HPLC-MS/MS,feline EDTA plasma,"100 ng/mL, 6 h, -20 °C, storage stability",,deviation from nominal,4%
CC(C)(O)c1ncc([S@](N)(=O)=NC(=O)Nc2c3c(cc4c2CCC4)CCC3)s1,,"healthy human volunteers, plasma","oral, 25 mg twice daily, day 14, fed, enteric-coated tablet",,Tmax,4 h
O=C(NCCCN(CCCCN(CCCNC(=O)c1cccc(=O)n1[O-])C(=O)c1cccc(=O)n1[O-])C(=O)c1cccc(=O)n1[O-])c1cccc(=O)n1[O-].[89Zr+4],radio-TLC,PBS,"1 h, pH 7.4, 37 °C, together with: Zn^2+ 10-fold excess",,intact complex,98.6 ± 2%
CCCCCCCC(=O)OC[C@H](NC(=O)[C@H](CO)NC(=O)CN)C(=O)N[C@@H](Cc1ccccc1)C(=O)N[C@@H](CC(C)C)C(=O)N[C@@H](CO)C(=O)N1CCC[C@H]1C(=O)N[C@@H](CCC(=O)O)C(=O)N[C@@H](Cc1cnc[nH]1)C(=O)N[C@@H](CCC(N)=O)C(=O)N[C@@H](CCCNC(=N)N)C(=O)N[C@H](C(=O)N[C@@H](CCC(N)=O)C(=O)N[C@@H](CCC(N)=O)C(=O)N[C@@H](CCCNC(=N)N)C(=O)N[C@@H](CCCCN)C(=O)N[C@@H](CCC(=O)O)C(=O)N[C@@H](CO)C(=O)N[C@@H](CCCCN)C(=O)N[C@@H](CCCCN)C(=O)N1CCC[C@H]1C(=O)N1CCC[C@H]1C(=O)N[C@@H](C)C(=O)N[C@@H](CCCCN)C(=O)N[C@@H](CC(C)C)C(=O)N[C@@H](CCC(N)=O)C(=O)N1CCC[C@H]1C(=O)N[C@@H](CCCNC(=N)N)C(=O)O)C(C)C,beat-to-beat plethysmography,human chronic HFrEF patients,"intravenous infusion, 0.1 µg/kg/min, 30 min after infusion end",,blood pressure mBP,75.5 ± 12 mm Hg
[11CH3]Oc1ccc(Cc2cn[nH]c2)nc1-c1cccc([N+](=O)[O-])c1,,"human, arterial plasma","dose not given, 60 to 120 min",,decline of parent plasma concentration,71%
O=C([O-])CN1CCN(CC(=O)[O-])CCN(CC(=O)NC[C@H]2CC[C@H](C(=O)N[C@H](Cc3cnc4ccccc4c3)C(=O)NCCCC[C@H](NC(=O)N[C@@H](CCC(=O)O)C(=O)O)C(=O)O)CC2)CCN(CC(=O)[O-])CC1.[64Cu+2],"PET/CT, OLINDA/EXM dosimetry","healthy human volunteers, oesophagus",,,absorbed dose,0.013 mGy/MBq
NC12CNCCNCC(NCc3ccc(CNC(=O)CCCC(=O)NCc4ccc(-c5nncnn5)cc4)cc3)(CNCCNC1)CNCCNC2.[64Cu+2],OLINDA dosimetry,adrenals,"24 h pretargeting interval, together with: huA33-TCO pretargeting",,mean absorbed dose,0.0374 rad/mCi
NCC(=O)NCC(=O)NCC(=O)NCC(=O)NCC(=O)NCC(=O)NCCCC[C@H](NC(=O)[C@@H]1CCCN1C(=O)[C@@H]1CSSCCC(=O)N[C@@H](Cc2ccc(O)cc2)C(=O)N[C@@H](Cc2ccccc2)C(=O)N[C@@H](CCCC(N)=O)C(=O)N[C@@H](CC(N)=O)C(=O)N1)C(=O)NCC(N)=O,,male Sprague Dawley rats,"sc, single dose",,NOAEL,0.23 mg/kg
C#CCN(C(=O)OCc1ccc(B2OC(C)(C)C(C)(C)O2)cc1)[c-]1cccc1.[Fe+2].c1cc[cH-]c1,cyclic and differential pulse voltammetry,acetonitrile,23 °C,baseline: ferrocene/ferrocenium,E1/2,-10 mV
CC(C)[C@H](NC(=O)[C@@H]1CCCN1C(=O)[C@H](CCCNC(=N)N)NC(=O)[C@H](CS)NC(=O)[C@H](Cc1c[nH]c2ccccc12)NC(=O)[C@H](CCCNC(=N)N)NC(=O)[C@@H](Cc1ccccc1)NC(=O)[C@H](Cc1c[nH]cn1)NC(=O)[C@H](CCC(=O)O)NC(=O)[C@H](CS)NC(=O)[C@H](CS)NC(=O)CNC(=O)[C@@H]1CC(=O)N[C@@H](CCCNC(=N)N)C(=O)NCC(=O)N[C@@H](CC(=O)O)C(=O)N[C@H](Cc2ccc(O)cc2)C(=O)N1)C(N)=O [technetium-99m labelled],,"female mice, B16/F1 melanoma, urine","intravenous, dose not given, 2 h, together with: 10 µg NDP-MSH co-injected",,urinary excretion,69.6 ± 23.8%
C=CC(=O)Nc1cc(Nc2nccc(-c3cn(C)c4ccccc34)n2)c(OC)cc1N(C)CCNC,UHPLC-MS/MS,"human, finger-prick dried blood spot","oral, 80 mg daily",,steady-state trough concentration,18 ng/mL
Polymyxin B,ultrafiltration ELISA,human citrate plasma,"1 µg/mL, 30 kDa MMCO filter",baseline: positive control,fraction in filtrate,7%
CC(=O)c1ccc2c(c1)sc(=O)n2CCCNC(=O)CN(CCN(CCN(CC(=O)O)CC(=O)NCCCn1c(=O)sc2cc(C(C)=O)ccc21)CC(=O)O)CC(=O)O,,human erythrocytes,"concentration not given, 4 h",,hemolysis,2.33%
N=C(N)NCCC[C@@H]1NC(=O)[C@H](Cc2c[nH]c3ccccc23)NC(=O)[C@@H](CC2CCCCC2)NC(=O)[C@@H]2CCCN2C(=O)[C@@H](NC(=O)CCc2ccccc2)CCCNC1=O,,"C57BL/6J mice, spinal cord","subcutaneous, 1 mg/kg",,elimination half-life,0.58 h
CC(=O)[CH](C(C)=O)[Pt-2]1([S+](C)C)[O]C(C)=CC(C)=[O+]1 (stereo not shown),,"rat, blood","intravenous, 5 mg/kg, single dose",,creatinine,0.4 ± 0.02 mg/dL
Oc1c(Br)cc(Br)c2nc3cc(F)ccc3nc12,,human red blood cells,"200 µM, 1 h, pH 7.2, 37 °C",,hemolysis,1.6%
CCCC[C@H](NC(=O)CNC(=O)CNC(=O)CN1CCN(CC(=O)O)CCN(CC(=O)O)CCN(CC(=O)O)CC1)C(=O)N[C@H]1CC(=O)NCCCC[C@@H](C(N)=O)NC(=O)[C@H](Cc2c[nH]c3ccccc23)NC(=O)[C@H](CCCNC(=N)N)NC(=O)[C@@H](Cc2ccccc2)NC(=O)[C@H](Cc2c[nH]cn2)NC1=O [copper-64 labelled],,"female C57 mouse, B16/F1 melanoma","intravenous, 0.037 MBq, 2 h",baseline: tumour over kidneys,uptake ratio,0.56
O=C(Nc1nccs1)C(c1cc(F)ccc1O)N1Cc2ccccc2C1=O (stereo not shown),,mouse plasma,"6 ng/mL, time not given, -30 °C, 3 freeze-thaw cycles, low QC",,recovery,107 ± 3.3%
CC(C)c1cnc(-c2cc(Cl)ccc2F)cc1Nc1ccncc1C(=O)NC(CO)CO,measured: intracranial tumour haemorrhage,human patients,"oral, dose not given, grade 2",,patients with related SAE,0%
COc1cc2c(cc1OC)CN(CCCCn1ccc3cc(OCC[18F])ccc31)C2,,"ICR mice, male","intravenous, 15 min",,brain/blood ratio,3.13
NS(=O)(=O)c1ccc(-n2nc(C(F)(F)F)c(O)c2-c2ccc(F)cc2F)cc1,substrate,human liver microsomes,"20 µM, 0 to 30 min, pH 7.4",,metabolite formation rate,14 pmol/min/mg
C#CCOc1ccc(/C=C2\SC(=O)N(CC(=O)NCc3ccccc3)C2=O)cc1,inverse Kirkwood-Buff integrals,binary solvent mixture,"298.15 K, mole fraction x1 0.10",,"Kirkwood-Buff integral G1,3",-387 cm³/mol
C=C(c1ncc(C(=O)O)cn1)c1cc2c(cc1C)C(C)(C)CCC2(C)C,,"Sprague-Dawley rat, male","oral, 100 mg/kg, 1 h, sesame oil vehicle",,blood triglycerides,71 ± 29.6 mg/dL
CCCC[C@@H]1NC(=O)[C@@H](NC(=O)[C@H](CCC(=O)O)NC(=O)CNC(=O)CN2CCN(CC(=O)O)CCN(CC(=O)O)CCN(CC(=O)O)CC2)CCCCNC(=O)C[C@@H](C(N)=O)NC(=O)[C@H](C(C)C)NC(=O)[C@@H]2CCCN2C(=O)[C@H](CCCNC(=N)N)NC(=O)CNC(=O)[C@H](Cc2c[nH]c3ccccc23)NC(=O)[C@H](CCCNC(=N)N)NC(=O)[C@@H](Cc2ccccc2)NC(=O)[C@H](Cc2c[nH]cn2)NC(=O)[C@H](CCC(=O)O)NC1=O [gallium-67 labelled],,"normal C57 mice, bone","intravenous, 0.037 MBq/mouse, 2 h",,tissue uptake,0.12 ± 0.08 %ID/g
Nc1ncnc(NCC2CCNCC2)c1-c1ccc(Oc2ccccc2)cc1,,"male humans, faeces","oral, 75 mg, single metabolite",baseline: dose,metabolite excreted in faeces,1.58 to 2.4%
[11CH3]c1ccc2nc(C3CCC3)n(-c3ccc4[nH]ncc4c3)c2n1,extrapolated from mouse,"human male, Upper large intestine wall",,,absorbed dose,5.2 µSv/MBq
COc1ccc2cc(-c3ccc(-c4ccc(C)cn4)nc3)oc2c1,TCSPC,toluene,,,fluorescence lifetime,1.28 ns
COC1C=COC2(C)Oc3c(C)c(O)c4c(c3C2=O)C2=NC3(CCN(CC(C)C)CC3)NC2=C(NC(=O)C(C)=CC=CC(C)C(O)C(C)C(O)C(C)C(OC(=O)c2cncnc2)C1C)C4=O (stereo not shown),,"female CD-1 mouse, plasma","oral, 10 mg/kg",,bioavailability,79.9%
C=C(c1ccc(C(=O)O)c(F)c1)c1cc2c(cc1C)C(C)(C)C=CC2(C)C,,"Sprague-Dawley rat, male","oral, 100 mg/kg, 24 h, sesame oil vehicle",,blood triglycerides,1590 mg/dL
O=C(C[c-]1cccc1)Oc1ccc(-n2cccc2)cc1.[Fe+2].c1cc[cH-]c1,cyclic voltammetry,acetonitrile,,baseline: Ag/AgCl,E1/2,467 mV
OC[C@H]1O[C@@H](Oc2c[nH]c3ccccc23)[C@H](O)[C@@H](O)[C@@H]1O,inhibitor,"rat, serum","oral, 20.0 and 40.0 mg/kg, together with: oral methotrexate 5.0 mg/kg",,methotrexate elimination,inhibited
Cn1c(=O)oc2ccc(-c3ccc(CC(C#N)NC(=O)C4CNCCCO4)c(F)c3)cc21 (stereo not shown),,human,"oral, 40 mg once daily, TEAE, multiple ascending dose",,acne incidence,0%
CC(C)[C@H](NC(=O)CNC(=O)[C@H](CCC(N)=O)NC(=O)[C@H](C)N)C(=O)O,,human,30 mg/kg,,time with quantifiable concentration,≤ 1 h
Cc1ccccc1/N=N/c1ccc(/N=N/c2c(O)ccc3ccccc23)c(C)c1,,rat whole blood,"16.0 µg/L, 30 days, -20 °C, long-term storage",,measured concentration,16.2 µg/L
CCCC[C@H](NC(=O)CNC(=O)CNC(=O)CN1CCN(CC(=O)O)CCN(CC(=O)O)CCN(CC(=O)O)CC1)C(=O)N[C@H]1CC(=O)NCCCC[C@@H](C(N)=O)NC(=O)[C@H](Cc2c[nH]c3ccccc23)NC(=O)[C@H](CCCNC(=N)N)NC(=O)[C@@H](Cc2ccccc2)NC(=O)[C@H](Cc2c[nH]cn2)NC1=O [lead-203 labelled],,"C57 mouse, bone","intravenous, 0.056 MBq, 24 h",,tissue uptake,1.06 ± 0.54 %ID/g
Cc1ccc(OCC(=O)O)cc1,,"Sprague-Dawley rat Crl:CD(SD), female, plasma","oral, 30 mg/kg/day of parent drug, day 90, 90-day repeated dosing",,Cmax,3890 ± 1350 ng/mL
CCC(=O)N[C@@H](C)C(=O)OCC(=O)N[C@@H](C)C(=O)O,,water,"pH 3, 25 °C",,depolymerization half-life,105 days
N=C(N)NCCC[C@H](NC(=O)[C@@H]1CCCN1C(=O)[C@H](Cc1ccccc1)NC(=O)[C@@H]1CCCN1C(=O)[C@H](Cc1c[nH]cn1)NC(=O)[C@@H](N)Cc1ccccc1)C(=O)O,,"Sprague-Dawley rat male, plasma","oral gavage, 50 mg/kg",,elimination rate constant,0.03 ± 0.01 min⁻¹
COC(=O)/C=C/C(=O)c1ccc(OC)cc1,,"Sprague-Dawley rat, plasma","oral, 200 mg/kg",,Vd/F,996 L/kg
CC(C)(Sc1ccncc1-c1ccc(C#N)c2ccccc12)C(=O)OC1OC(C(=O)O)C(O)C(O)C1O (stereo not shown),,urine,"oral, 15 mg, 72 h, mild renal impairment",baseline: dose,fraction excreted unchanged,11.2%
CC[C@H](C)[C@H](NC(=O)[C@H](CO)NC(=O)[C@H](CCCNC(=N)N)NC(C)=O)C(=O)N[C@H]1CSSC[C@@H](C(=O)N[C@H](C(=O)NCCOCCOCCOCCOCCOCCOCCOCCOCCC(N)=O)[C@@H](C)O)NC(=O)[C@H](CCCNC(=N)N)NC(=O)[C@H](Cc2c[nH]cn2)NC(=O)[C@H](C)NC(=O)CNC(=O)[C@H](Cc2c[nH]c3ccccc23)NC(=O)[C@H](CC(=O)O)NC(=O)[C@H](CCC(N)=O)NC(=O)[C@H](Cc2c[nH]c3ccccc23)NC(=O)[C@H](C(C)C)NC1=O,UV absorbance,PBS,pH 7.4,,apparent solubility,≥ 10000 µg/mL
COC[C@@H](CC(C)C)NC(=O)c1ccc(CO)c(CO)c1,LC-MS,human liver microsomes,"10 µM of parent drug, 10 min, pH 7.4, together with: NADPH",baseline: parent drug at time zero,metabolite peak area,0.2%
OCc1cn(Cc2ccc(-c3noc(-c4ccc(OCC[18F])c(C(F)(F)F)c4)n3)cc2)nn1,,"rat, blood","intravenous, 2 h",,tracer uptake,0.35 %ID/g
